Results gathered from unrelated publications.
Parts stem from different laboratories: compare values within a part only. Substitutions count along the parent as printed.

Set 1
Target: Fragile X messenger ribonucleoprotein 1, C-terminal low-complexity region (Fmr1, Mus musculus, UniProt P35922)
Method: RNA Bind-n-Seq
Form: RNA
Medium: in vitro
Concentration: 200 nM
Notes: whole 134-nt RNA, ends assumed
With: 150 mM KCl
Baseline: input library
Direction: higher = stronger binding
Endpoint: log2 enrichment
Shared flanks, not repeated: GGGAGUUCUACAGUCCGACGAUC … UGGAAUUCUCGGGUGUCAAGG
UCCUGUGCUACACAUCGUAUGUACCGAAUCAAAUUUUUUUAAAUUUUUUUAAACCCAAAAAAGUAUUAUGUUACGCCGUUCGGAUCUGCA: 0.458
CAAGUCCUGUGCUACACAUCGUAUGUACCGAAUCGGAAAGGGAAAGGGGAAAGGGGAAAGUAUUAUGUUACGCCGUUCGGAUCUGCACUU: 0.0621
CCUGUGCUACACAUCGUAUGUACCGAAUCGGGGAAAAAAAGGGGUGGGGUUUUUUUGGGGAAAGUAUUAUGUUACGCCGUUCGGAUCUGC: 0.38
AGUCCUGUGCUACACAUCGUAUGUACCGAAUCGGUUUUUGGUUUUUUUGGUUUUUGGAAAGUAUUAUGUUACGCCGUUCGGAUCUGCACU: -0.875
UCAAGUCCUGUGCUACACAUCGUAUGUACCGAAUCGGGCCCGGCCCGGGCCCGGGAAAGUAUUAUGUUACGCCGUUCGGAUCUGCACUUC: -0.234
UCCUCAAGUCCUGUGCUACACAUCGUAUGUACCGAAUCGGUGGAAAGGAGGAAAGUAUUAUGUUACGCCGUUCGGAUCUGCACUUCCAGC: -0.43
UCAAGUCCUGUGCUACACAUCGUAUGUACCGAAUCGGGAAAGGAAAGGAAAGGGGAAAGUAUUAUGUUACGCCGUUCGGAUCUGCACUUC: -0.438
AGUCCUGUGCUACACAUCGUAUGUACCGAAUCGGGUUUUUGGGUUUUUUUGGGUGGGAAAGUAUUAUGUUACGCCGUUCGGAUCUGCACU: 0.844
UCCUCAAGUCCUGUGCUACACAUCGUAUGUACCGAAUCGGGGUGGUGGUGGGAAAGUAUUAUGUUACGCCGUUCGGAUCUGCACUUCCAG: 0.65
AGUCCUGUGCUACACAUCGUAUGUACCGAAUCGGGAAAAAGGGAGGGUUUUUUUGGGAAAGUAUUAUGUUACGCCGUUCGGAUCUGCACU: 0.491
UCUCCACCUGCUGAGCUCCCCAGUUUGAGGCGGAGCACACGCCAAAAGACCACGGGCUCCUGUGCUAGUACCAGGUAAUUUGUUUUUUUU: 0.44
GCAGGAAGUAAAAACAAAUGGAAAUGCUUCGGAUAGUGGCAGGGGUGGGGGUUGCUAAGGAAAGGGUAAAAUGGGAGUGGGUAAAGAGUU: 0.232
AGUCCUGUGCUACACAUCGUAUGUACCGAAUCGGUUUUUUUGGUUUGGAAAAAAAGGAAAGUAUUAUGUUACGCCGUUCGGAUCUGCACU: -1.18
UGGAAGCUCAUACGACUGUGAAAGAAGCUGAGGAUGACAACAUCUCGGUCACAAUCCAGGCUGAAGAUGCCAUCACUCUGGAUUUUGAUG: -1.3

Set 2
Target: ABI1, truncated, D143A, DHFR fusion (Arabidopsis thaliana)
Method: DHFR PCA, deep sequencing
Medium: yeast
Notes: methotrexate growth selection, single substitutions
With: (+)-ABA 0.0091 µM
Baseline: wild-type fitted maximum
Direction: higher = stronger binding
Endpoint: relative binding score
Starting sequence: PYL1, truncated, DHFR fusion (Arabidopsis thaliana); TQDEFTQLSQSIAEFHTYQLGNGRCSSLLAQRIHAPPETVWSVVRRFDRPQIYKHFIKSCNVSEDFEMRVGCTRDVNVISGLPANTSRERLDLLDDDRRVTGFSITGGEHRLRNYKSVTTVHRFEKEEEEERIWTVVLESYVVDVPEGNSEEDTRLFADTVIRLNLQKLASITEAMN; partner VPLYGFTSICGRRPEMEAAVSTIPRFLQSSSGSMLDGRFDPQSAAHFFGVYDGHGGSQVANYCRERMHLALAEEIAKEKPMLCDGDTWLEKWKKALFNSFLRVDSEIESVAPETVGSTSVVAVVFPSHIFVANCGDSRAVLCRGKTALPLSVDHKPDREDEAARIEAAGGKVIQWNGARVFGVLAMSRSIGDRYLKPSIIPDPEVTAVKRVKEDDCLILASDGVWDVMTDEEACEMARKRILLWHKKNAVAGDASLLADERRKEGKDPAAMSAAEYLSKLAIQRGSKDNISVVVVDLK
I52N: 4.43%
R24G: 0.716%
R49M: 17.6%
E131N: 58.4%
R46S: 1.24%
R155C: 2.43%
G81D: 7.3%
T106N: 3.08%
T119G: -5.43%
D65K: 13.8%
E139A: -1.2%
C72T: 3.47%
W41V: -0.249%
V44Q: -4.03%
V145T: -1.23%
V43H: 1.43%

Set 3
Target: RNA binding protein fox-1 homolog 2, RRM domain, GST-SBP tag (RBFOX2, Homo sapiens, UniProt O43251-10, residues 100-194)
Method: RNA Bind-n-Seq
Form: RNA
Medium: in vitro
Concentration: 365 nM
Notes: natural RNA segment, single round, ends assumed
Baseline: no-protein control
Direction: higher = stronger binding
Endpoint: RBNS enrichment (R)
Shared flanks, not repeated: GGGAGUUCUACAGUCCGACGAUC … UGGAAUUCUCGGGUGCCAA
Residues (chain): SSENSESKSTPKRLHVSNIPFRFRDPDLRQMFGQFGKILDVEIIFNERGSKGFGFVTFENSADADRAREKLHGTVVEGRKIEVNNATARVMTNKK
UUUAAGAAGAGCUAUUCAUCACUGUAAUUAUUAUUAUUUUCUACAAUAAAUGGGACCUGUGCACAGGAGGAAAUUUUAUUGUCUCUGAUUUCAACUGUGGAGGUGGGUGG: 0.531
GCUUUCGCUGCUUUAGAGCACCACAGACCUGACUGCUGCCGAGUCGGUCCCUGCAGCUAAUGCUCGAAGACCUUCUGGGCUCCUCGUGGCACUAGGCCCUUCACCUUGAC: 0.232
UUGUCGCUGUAUUAAGUGCAGUUUUCUUGGAGCCAUAACAACUGUUAAUGCUUAGGAAGCCCAUUUGCAAACACUCAGUGAAGAGACACUUAAGUUUAAAAUAAAGCUUU: 0.208
UGCUGGGUUGAACAGAGUCCCUUAUGCUUUUUGUCCUCUCCCUGCGCCUGGGAGAGGUGGGAGUAGGAGCCCAAACACACAGGUACAGAAAGAUCUGGAAGAAGGCCUGG: 0.329
AUUUCAGUCUUGAUGUUUGUUCUAUCAGACUUAACCUUUUAUUUCCUGUCCUUCCUUGAAAUUGCUGAUUGUUCUGCUCCCUCUACAGAUAUUUAUAUCAAUUCCUACAG: 0.914
UCAGCCUACAUUCAACAAACGCCUCUUGAAUGUCUAUGAUUCCCCCAGACACAUGCUGACAGACACGAGGGAAGCAAGACAGAUUCUUUCUCCACUGUUAAACUCUGGGG: 0.577
CCCCUUGCUUCCAGGGAAGAUGAAGAGAGAGAGAUUUGGAAGGGGCUCUGGCUCCCUAACACCUGAAUCCCAGAUGAUGGGAAGUAUGUUUUCAAGUGUGGGGAGGAUAU: 7.21
GGGGAAAAGAAUGUGCAGUAGAGUGCAAAUACAUUACAAUUACUGGAAAAUUGGUGGAAAAUGCUUUUUGGGGUUACAAUUAUAUCAUUUUUAAGUGUUGAUGCUUUGUA: 0.9
AGGAAGACUAAUUGCCAAUAACGUCUGCAUUUUCAUCUUGCAUGGAUUAACAGCCAUUUAUAUGGACUUAUGUCUCUUAAUGCACAAAGAAGCAGAUAUCUCGAAGGAGC: 0.264
ACUCUCAGGUCCCCCACUUAGUCAGGCCUGAGCUAAUUUAUUUGAGCGCAGAGUGUAAAAUUUUAAUUCAAAAUGGUGGCUAUACUCACUACACAUAAAUCUCAUAAUCU: 0.387
CAGGGGCUUAUAGCUGCUGUAUGAGAACAUAAAGACUAGUGCACAGUGCUAUCUCCAUCUACUGACUUGUGGUGUACACGUGCAUGUCUGGGUCUGUGGGUUUCUGUUGG: 1.22
GCCAAAGGCCAGCCUCCUGGCCCCAAUACCCAUUUUGGAAGCCCCUGUGGCCGUGUGGAUGUCGGUAACAGUUGUAUAAAAUAAAUUCUAUUUAUCGCUAUUGUACCCAG: 0.259

Set 4
Target: CCNE1, cyclin fold, Cln2 fusion (human)
Method: yeast growth competition, sequencing
Medium: yeast
Notes: strong parent motif
Baseline: not given
Direction: higher = stronger binding
Endpoint: normalised enrichment score
Starting sequence: E2F1 docking peptide (human); PPVKRRLDLETDH; partner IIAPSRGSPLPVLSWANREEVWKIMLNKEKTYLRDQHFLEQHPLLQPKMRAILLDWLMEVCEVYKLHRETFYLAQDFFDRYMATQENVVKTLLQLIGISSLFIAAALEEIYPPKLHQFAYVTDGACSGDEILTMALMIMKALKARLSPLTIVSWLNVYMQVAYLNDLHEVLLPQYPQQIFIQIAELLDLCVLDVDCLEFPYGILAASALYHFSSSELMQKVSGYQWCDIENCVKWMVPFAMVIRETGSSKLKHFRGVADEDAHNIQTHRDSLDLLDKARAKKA
PPVKRRLDLEEDH [T11E]: 1.78
PPVKRHLDLETDH [R6H]: 0.732
PGVKRRLDLETDH [P2G]: 1.83
PMVKRRLDLETDH [P2M]: 0.424
PPVHRRLDLETDH [K4H]: 0.533
PPVKRRLDLETDN [H13N]: 1.85
PPFKRRLDLETDH [V3F]: 0.916
PPVKRRNDLETDH [L7N]: 0.254
PPVKRRLTLETDH [D8T]: 1.82
PPPKRRLDLETDH [V3P]: 0.747
PPVKRRTDLETDH [L7T]: 0.463
PPVKARLDLETDH [R5A]: -0.0374
PPRKRRLDLETDH [V3R]: 0.527
PTVKRRLDLETDH [P2T]: 1.72
PVVKRRLDLETDH [P2V]: 0.947
PPVKDRLDLETDH [R5D]: 0.273
PPVKRRLDLECDH [T11C]: 2.22
PPVKRRLALETDH [D8A]: 1.07
PWVKRRLDLETDH [P2W]: 0.911
PPVKRRLDLEKDH [T11K]: 0.508
PPVKRRIDLETDH [L7I]: 0.438

Repeated from above (set 3):
GCUUUCGCUGCUUUAGAGCACCACAGACCUGACUGCUGCCGAGUCGGUCCCUGCAGCUAAUGCUCGAAGACCUUCUGGGCUCCUCGUGGCACUAGGCCCUUCACCUUGAC: 0.232
UUGUCGCUGUAUUAAGUGCAGUUUUCUUGGAGCCAUAACAACUGUUAAUGCUUAGGAAGCCCAUUUGCAAACACUCAGUGAAGAGACACUUAAGUUUAAAAUAAAGCUUU: 0.208
UGCUGGGUUGAACAGAGUCCCUUAUGCUUUUUGUCCUCUCCCUGCGCCUGGGAGAGGUGGGAGUAGGAGCCCAAACACACAGGUACAGAAAGAUCUGGAAGAAGGCCUGG: 0.329
AUUUCAGUCUUGAUGUUUGUUCUAUCAGACUUAACCUUUUAUUUCCUGUCCUUCCUUGAAAUUGCUGAUUGUUCUGCUCCCUCUACAGAUAUUUAUAUCAAUUCCUACAG: 0.914
UCAGCCUACAUUCAACAAACGCCUCUUGAAUGUCUAUGAUUCCCCCAGACACAUGCUGACAGACACGAGGGAAGCAAGACAGAUUCUUUCUCCACUGUUAAACUCUGGGG: 0.577
CCCCUUGCUUCCAGGGAAGAUGAAGAGAGAGAGAUUUGGAAGGGGCUCUGGCUCCCUAACACCUGAAUCCCAGAUGAUGGGAAGUAUGUUUUCAAGUGUGGGGAGGAUAU: 7.21
